Measured values of several laboratories.
A part holds a random share of what one study measured.

Block 1
Target: RING finger protein unkempt homolog, zinc fingers 1-6, GST-SBP tag (UNK, Homo sapiens, UniProt Q9C0B0, residues 30-357)
UniProt Q9C0B0, sequence (30-357, looked up): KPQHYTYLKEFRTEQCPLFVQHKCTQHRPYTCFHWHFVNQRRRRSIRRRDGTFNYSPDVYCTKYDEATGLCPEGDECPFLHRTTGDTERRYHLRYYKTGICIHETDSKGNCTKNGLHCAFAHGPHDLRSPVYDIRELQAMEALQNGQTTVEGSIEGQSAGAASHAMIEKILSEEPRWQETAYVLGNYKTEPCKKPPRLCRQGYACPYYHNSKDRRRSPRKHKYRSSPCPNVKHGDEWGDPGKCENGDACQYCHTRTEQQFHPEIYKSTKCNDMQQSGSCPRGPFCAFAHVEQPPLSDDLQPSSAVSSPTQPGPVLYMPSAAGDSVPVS
Technique: RNA Bind-n-Seq
Form: RNA
Sample: in vitro
Concentration: not given
Setting: RNA with constant flanks, ends assumed
Relative to: input RNA pool
Reading: higher = stronger binding
Measurement: bound/input enrichment
Constant ends, left off below: GGGAGUUCUACAGUCCGACGAUC … CAACAGAGGAUUGAGCAUCA
UUUGGUGGUCAAAGUAAAUGGGUGUAGGAUGCUACCAGCCUCAGGAGAGGCUUCACCAUGUUCCGCACCGUUGUCUUCACAAGAAAGAAUUACCCAGUCCAAGAUGUCAUUAGUGCCAAG: 0.229 ratio
AGGCUCGAGGGCGGUGAGCAGUGACAAUUGCUAGGCGGAGACAGUGCAGGGAAGAGAGACCUCCGAAAGGAUCAGGACUGGCGGGAGGUAUUUAACUGAAAGGAAUAUCUGCUUCACUGU: 0.226 ratio
UCCGUUUUGGAAGAGUUGCAGAAAGACCUAGAAGAGGUCAAAGUAUUGCUGGAAAAGUCCACCCGGAAAAGACUACGUGAUACUCUUACAAGUGAAAAGUCCAAGAUUGAGACGGAACUC: 0.363 ratio
UGGUGGGGACUGAGUUCCCUGUUCAAACCGUUAUUGGGUACAGGAUUGAAUGUUUGAUUUCCGGUUUUAUUUUUCUUAUGAAUGUCCAGAUCUGUGUUUCCCUGCCCUCCCAGACUCUGG: 0.318 ratio
UUCUCUUCUUCCGUGGUAGGAAGCCUCCCCAUGUACUCAUGCCUCGAGCUGUUUCUAAGCCCGCUGACUGCUGCACUGCUGUGAGCAGUAUCUUAACCCUCCUCUUUGCCAGGGGAGAAU: 0.321 ratio
AUGGCUUCAGAAGAGCUACAGAAAGAUCUAGAAGAGGUAAAGGUGUUGCUGGAAAAGGCUACCCGGAAAAGAGUACGUGAUGCCCUUACAGCUGAAAAAUCCAAGAUUGAGACAGAAAUC: 0.26 ratio
GGGCCCUGGAAGCUGACGGCGUCCAAGACCCACAUCAUGAAGUCGGCGGAUGUGGAGAAAUCCGCCGAUGAAUUACAUAUGCCAUCUCUCCCUGAAAUGAUGUUUGGAGACAACGUUUUA: 0.133 ratio
CCUACUGUAAACAACUCAGGGCAGUAUUCUCGAUAUCCUUACAGUAACCUAAAUCAGGGAUCCGUUAACAGUACAGGGAUGAAUCAAAAUUUAGGCCUUACAAACAGUACUCCAAUGAAU: 0.478 ratio
AUAUGCCUGUGGCUGCUGGACACAUACCCAUAUAACCCCCCUAUCUGUUUUGUUAAGCCUACCCGUUCAAUGACUAUUAAAACAGGAAAGCAUGUGGAUGCAAAUGGGAAAAUCUACCUA: 0.17 ratio
CAUCUGUUUUUUAAAUUACAUUUUUGUUUAUGUUCUUGAGCUGAUGUAGUGGAACUUGCCCCGCACAUUCAGGUCCCAGCCAGUUGGCAGAGCAUGCUCUCAUCUCCUUAUUCCAUACCC: 0.501 ratio
UGCAUUAAUCCACCCUUGUUUGAAAUCCAUCAAGUCUUGUUGAGUCCAACCCAACAUCAUGCCGCACUUAUCGGAAGUAAAGGACUUAUGGCAUUAGAAUUACCUCAGAGGUGGGGGAAG: 0.363 ratio

Block 2
Target: PABPC1L2, full length, GST fusion (mouse, UniProt A0ABA7IW68)
Technique: RNAcompete
Form: RNA
Sample: in vitro
Concentration: 20 nM
Setting: 7-mer, probes averaged, single round
Relative to: mean of 7-mers
Reading: higher = stronger binding
Measurement: 7-mer Z-score
Construct (chain): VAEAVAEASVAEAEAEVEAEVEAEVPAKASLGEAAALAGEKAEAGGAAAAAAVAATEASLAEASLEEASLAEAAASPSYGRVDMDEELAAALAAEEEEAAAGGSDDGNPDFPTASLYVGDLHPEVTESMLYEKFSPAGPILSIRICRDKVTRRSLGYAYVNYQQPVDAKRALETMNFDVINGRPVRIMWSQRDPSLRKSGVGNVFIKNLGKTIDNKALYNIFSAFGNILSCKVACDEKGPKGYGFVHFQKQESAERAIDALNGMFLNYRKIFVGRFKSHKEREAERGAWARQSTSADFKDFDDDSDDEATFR
AGCACCG: -0.166
CGGCACA: -0.0772
CUAACUU: -0.331
CUUUAUC: -0.26
UCUACAC: -0.229
CACCCAC: -0.251
AUCAGCA: 0.00436
AAUGGAG: 0.206
GUCAAAC: 0.0352
UGUAUUU: -0.177
CAGGGGA: 0.251
GCAACUC: -0.208
GGUUUGU: -0.485
GCGGACC: -0.00289
AGUAUGA: 0.0478
CCAAUCU: -0.262

Block 3
Target: Interferon regulatory factor 5, full length, phosphomimetic (IRF5, Homo sapiens, UniProt Q13568-2, residues 1-514, S451D/S453D/S456D/S462D)
Technique: protein-binding microarray
Form: double-stranded DNA, one strand shown
Sample: in vitro
Concentration: 940 nM top
Setting: 60-bp whole probe
With: salmon DNA 0.4 mg/ml
Relative to: random background probes
Reading: higher = stronger binding
Measurement: fitted relative affinity
Constant ends, left off below: GCCTAGCAC … GTCTTGATTCGCTTGACGCTGCTG
GACGATTCGAGTTTCGAGACGTGCTAG: 3.4 z-score
TCACCTTGAACTTTGGCACTGTGCTAG: 0.136 z-score
TTAGGAATGCTTTTCCTTTAGTGCTAG: -0.346 z-score
GACGGTATCCTACTACTGACGTGCTAG: 0.214 z-score
CCCCCAATCTCTCTTCACATGTGCTAG: 1.37 z-score
GACGATCTCAGTTTCGATACGTGCTAG: 8.45 z-score
TTAGGTTTCGGATTGGGTTAGTGCTAG: 8.95 z-score
TTAGATCTCAGTATCGATTGGTGCTAG: 4.79 z-score
TTAGGTGTCCTTTTCCTTTAGTGCTAG: 0.385 z-score
TATAAATTATCTTTAATCCTGTGCTAG: 0.265 z-score
TTAGGTTTAGGGTTTCGGTTAGTGCTA: 5.44 z-score
TCAAGCATTACTTTAGGACTGTGCTAG: -0.163 z-score
TTAGAGATCAGACTGGATTAGTGCTAG: -0.707 z-score
TTAGGTTTCGGTATCGGGTAGTGCTAG: 15 z-score
TTAGGAATGCTACTGCTTTAGTGCTAG: -0.428 z-score
GACGAACGGAGTATCGAGACGTGCTAG: 1.02 z-score
TCATATTTTTTTCTAATACTGTGCTAG: 1.67 z-score
GACGGGATCGGGTATCGGGACGTGCTA: 1.08 z-score

Block 4
Target: Histone acetyltransferase KAT6A, winged helix 2, GST fusion (KAT6A, Homo sapiens, UniProt Q92794, residues 85-181)
Technique: protein binding microarray
Form: double-stranded DNA, one strand shown
Sample: in vitro
Concentration: not given
Setting: 8-mer, flanks averaged, mean of 2 arrays, mostly near background
Relative to: not given
Reading: higher = stronger binding
Measurement: E-score
Residues (chain): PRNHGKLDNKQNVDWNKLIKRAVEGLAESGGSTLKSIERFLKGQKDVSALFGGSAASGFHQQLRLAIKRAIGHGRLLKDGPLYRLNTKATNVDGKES
CCAATCTA: 0.0479
AAACACAA: -0.00787
CACCTTCG: 0.058
AACGCGTT: -0.0181
CTTGGTTA: 0.0304
ACCGTATC: 0.111
CGGCGTCC: 0.278
GAGTTCAC: 0.04
AACCAAGC: 0.0608
CTATCGAA: -0.0501
AGTCATTA: -0.217
TCGGCTAA: 0.0524
AACGCGGC: 0.105
CATTAAGG: -0.0575
GCACGAAA: 0.00305
CGGCGCCG: 0.32
ACTTTTGC: 0.0885
AATCTTGC: 0.126
CTAATTAA: 0.0561
ATAATTTG: 0.00814

Block 5
Target: RNA binding protein fox-1 homolog 2, RRM domain, GST-SBP tag (RBFOX2, Homo sapiens, UniProt O43251-10, residues 100-194)
Technique: RNA Bind-n-Seq
Form: RNA
Sample: in vitro
Concentration: 365 nM
Setting: natural RNA segment, single round, ends assumed
Relative to: no-protein control
Reading: higher = stronger binding
Measurement: RBNS enrichment (R)
Constant ends, left off below: GGGAGUUCUACAGUCCGACGAUC … UGGAAUUCUCGGGUGCCAA
Construct (chain): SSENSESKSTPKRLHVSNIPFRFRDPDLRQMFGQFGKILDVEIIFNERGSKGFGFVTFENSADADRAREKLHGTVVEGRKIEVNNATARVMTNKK
CAACAGUUUGAGGGAGCAUUGCCCCUUUGUUCCUGUGAGGACUGGCAGGCUUUGACUGACCUCUCAUUCCCUUUGCACUGCUUCAGGUUAGUUCUAGUCCAUAAUGGCCU: 0.231
GGGGAGACGCUCUAUUUUUUCACAGUUAAAUGACAGUUGUAGAUUGAUACGCAGUUGUGCAUGGGAAGGGGAAACGCACAGCUUUAUUUACUGUAAAGUGGAAUUUCAGG: 1.77
UCCAUAUCAGGCUUACCAAGAAUAUGUGCCCUGUUUUUACCCGAGAUUUCUCCACUUGCCUCAAGGCUGGGAACAAACUUCUGUUGGAAUUUUAAAUAGGAUUAUUUGCA: 0.732
AAAAGACAGUUUUCCAUCCUACAGUAAUUGGGAUGAAGAACAAAACAGUUGAUCCUUGUAAAUACAUUAUGCAGAAUAUUUAUUUUUCUUAAAAUGUAUUUUCACAACCC: 0.293
CUAACCACCAAGCUUCCCUUUGACUGGCUCCAAAGGCUUUUAUUUAAGUGAGAUGGAAAAGCUGAAUGCUGACACACCCCACCCAUAAGCAAAGUAUCAACGCUUUCUGA: 0.422
AGCCUGUGUUAGAGCACAGAUUUACCUAGGCUUGAAGAUUUGGAAGAAAUAAUAUGUAAGAAUGGCCUCAAGGCAGACCACUUUAAGUUUGGCUAGACUUCAUAUCGUGG: 0.508
UUGGUGUCAUUUUCAGGCGGGCCCCUCUCUGAUUCCUCGGUCUGGAAAUAAACGCCAGGAAACAGCCUGUGUUGUGGUUUCAUUACAUGUGUACCGCAGGACAAGGGAGG: 0.265
UCCCCCUCAACUCCAUACUCAACAGGGAUGCACAGGAUUGCUAACAGAGGGCGGGGCACACCUCAGUUUUCUAUCACCUUCCUACCAGAGGGGAAAGUAACCUGAACUUU: 0.391
UUUUAAGACUAAGUACCAAUUGAGGUAAACAUGAAACCGUUAUAAAGCAAAUUAAAAAAAAAUACAUUAGGAAAAGUUACACAAAUGAAGUGUACGCCUAUUAUAUUCCC: 0.931
AGGAGCUGCUCUGCGCCAGGUGCCAAGGCUUCAGGCAGGCAGGCCCAGGAUGGGCGUUUGCUGCGCACAGACACUCAGCAGGGGCCUCGCAGAGAUGCGUGCAUCCAGCA: 0.554
UCAAUUCCAGAGCCCCUCCACUCUAACGCUAUGCUUUGCUUAUUAUUGCUACAGAGAUAACUGCCCUGUAGUAUCCCAAUGGAUAUCACUCCCAGUCUCAAAUUGGGCUG: 0.645
GAGCAGGUUACAAUGUUACUUCAGCCCACAGUUUAUUUCUAUACUUGAGUUCUUAAGUACAGAAGAUAGAAGUGAUUUAAAUGGCAUAGUAUAUAUAUCAUUUUCUGGCC: 0.271

For quick reference, copied from above (block 1):
AGGCUCGAGGGCGGUGAGCAGUGACAAUUGCUAGGCGGAGACAGUGCAGGGAAGAGAGACCUCCGAAAGGAUCAGGACUGGCGGGAGGUAUUUAACUGAAAGGAAUAUCUGCUUCACUGU: 0.226 ratio
UGCAUUAAUCCACCCUUGUUUGAAAUCCAUCAAGUCUUGUUGAGUCCAACCCAACAUCAUGCCGCACUUAUCGGAAGUAAAGGACUUAUGGCAUUAGAAUUACCUCAGAGGUGGGGGAAG: 0.363 ratio
GGGCCCUGGAAGCUGACGGCGUCCAAGACCCACAUCAUGAAGUCGGCGGAUGUGGAGAAAUCCGCCGAUGAAUUACAUAUGCCAUCUCUCCCUGAAAUGAUGUUUGGAGACAACGUUUUA: 0.133 ratio
UUUGGUGGUCAAAGUAAAUGGGUGUAGGAUGCUACCAGCCUCAGGAGAGGCUUCACCAUGUUCCGCACCGUUGUCUUCACAAGAAAGAAUUACCCAGUCCAAGAUGUCAUUAGUGCCAAG: 0.229 ratio
AUAUGCCUGUGGCUGCUGGACACAUACCCAUAUAACCCCCCUAUCUGUUUUGUUAAGCCUACCCGUUCAAUGACUAUUAAAACAGGAAAGCAUGUGGAUGCAAAUGGGAAAAUCUACCUA: 0.17 ratio
